Experimental data pooled from the literature.
Numbered parts are unrelated; each lists some results of a single study.

Set 1 — method: RNA Bind-n-Seq; form: RNA; sample: in vitro; tested at: 365 nM; reference: no-protein control; direction: higher = stronger binding; measurement: RBNS enrichment (R)
Target: RNA binding protein fox-1 homolog 2, RRM domain, GST-SBP tag (RBFOX2, Homo sapiens, UniProt O43251-10, residues 100-194)
Setting: natural RNA segment, single round, ends assumed
Residues (chain): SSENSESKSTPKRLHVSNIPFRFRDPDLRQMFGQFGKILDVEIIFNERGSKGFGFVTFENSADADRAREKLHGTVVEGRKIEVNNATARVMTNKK
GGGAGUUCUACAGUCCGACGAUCAGGCUGCAGCCAAGGGGACUGAGCAGCAGGCACCCAAUGCCACCAGCUCGUCUCUUCCUAGCAAGCAAAGGGUUAAAGAAGCCACCACCUGGGUGUCAGUGGGAAGGAGAUGGAAUUCUCGGGUGCCAA: 0.669
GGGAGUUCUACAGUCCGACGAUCAUUUUGUACAUAUGUUUGCUCUUUUUUUGUACAGACUAGUUGUUGAGAAAACAGGGGCGUUUCCUAAUUUGGUCUUUAUCCUGCGACAACACUUUCAGCAGACUAGCCUCUGGAAUUCUCGGGUGCCAA: 2.48
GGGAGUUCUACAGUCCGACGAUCCCAAGGGGCUGCUAGUAUAUGUCAGACAUGAAAACUAUUUUAAAGCUGACUUUGUUGCCUUAUCUUGAAAAGAAUCUAGAUAGGUGCUUUUAACUGGGGUAUUAACUUUUUGGAAUUCUCGGGUGCCAA: 0.51
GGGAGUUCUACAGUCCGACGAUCGGGGGAGGGGGUAUUUGCAAAACCUUAAUUUUGUUAAAAUGGGGGACUCUGUCAGGGGACUCUGUCAUCGCUUCCCUUCCUCAGAGGACAGCACAGAGCCGCGGCGUACAUGGAAUUCUCGGGUGCCAA: 0.601
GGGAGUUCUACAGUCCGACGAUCCCAAUGUCCCCAGGGGGCAACACCCCUCUCUUGGACUUCAGGGUCAAGAGAAUCUCUGCUGGCUACCCCAGGACUUCUCAUUAUAGAUUUCCUGGAGCACGCAGCAGAAAUGGAAUUCUCGGGUGCCAA: 0.203
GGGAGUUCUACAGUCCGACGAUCCCUCCCUUUUCAAUAAGAUUAUUAGUCGUGCAUGUCUGUGAGCUGCCUUUCAUCACCAUUUUUCCUGAGUAGGGCUUAGUUUUAUUCUGGAAAGACAUCUCCAAGGUGAGUGGAAUUCUCGGGUGCCAA: 3.14
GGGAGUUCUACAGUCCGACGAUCUCUCUCCUUUAAGCUCAAGUUUUGAACUCUCUGCGGUUUUCCACCCCUGCCUUCUCAGCCACAUGCUUUUGGCCUUAAACGCUCAGUCUUGUGGAGUUCAACUCUGUCAAUGGAAUUCUCGGGUGCCAA: 0.648
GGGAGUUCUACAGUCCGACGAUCUGAACCAGGUUUUUCCUUCUGAUUUUCCCUUUUCAACAUUCCUUACCAGUCACCAAAGUUUCCUGUUAUAAUUUCUUUUAGCAGACAAGUUAUAAGUCAGAUUUAAUUAGUGGAAUUCUCGGGUGCCAA: 0.338

Set 2 — method: universal PBM; form: double-stranded DNA, one strand shown; sample: in vitro; tested at: not given; direction: higher = stronger binding; measurement: E-score
Target: Sal-like protein 4, full length isoform B (SALL4, Homo sapiens, UniProt Q9UJQ4-2, residues 1-616)
Setting: 8-mer, flanks averaged, mean of replicates
Construct (chain): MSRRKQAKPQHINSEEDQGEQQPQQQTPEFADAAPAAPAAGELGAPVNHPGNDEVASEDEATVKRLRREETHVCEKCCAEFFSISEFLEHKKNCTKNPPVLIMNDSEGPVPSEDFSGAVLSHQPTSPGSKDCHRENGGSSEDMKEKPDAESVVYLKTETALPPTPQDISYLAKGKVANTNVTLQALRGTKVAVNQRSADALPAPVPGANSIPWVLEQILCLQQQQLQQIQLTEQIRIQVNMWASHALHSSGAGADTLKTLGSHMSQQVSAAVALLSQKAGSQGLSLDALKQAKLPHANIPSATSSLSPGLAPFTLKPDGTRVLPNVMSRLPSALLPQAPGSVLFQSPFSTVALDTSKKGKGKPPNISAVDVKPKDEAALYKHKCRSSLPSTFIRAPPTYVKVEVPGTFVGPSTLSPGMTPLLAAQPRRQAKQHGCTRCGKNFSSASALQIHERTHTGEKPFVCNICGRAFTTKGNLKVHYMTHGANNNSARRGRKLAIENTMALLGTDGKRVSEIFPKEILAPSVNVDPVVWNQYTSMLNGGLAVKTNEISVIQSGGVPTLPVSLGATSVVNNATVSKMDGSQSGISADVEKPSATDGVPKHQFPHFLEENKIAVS
CATAGCAA: 0.0748
CTATGACC: 0.089
CCGTGGTC: -0.348
CCACTCTA: -0.00898
CAGCTGCG: -0.299
TCGATCAA: -0.0702
GTATGCCA: -0.161
ATCGCAAA: 0.11
ATCATAAC: 0.403
GATGAATA: 0.282
AAAACCAC: 0.124
ATTCCCTC: -0.0846
AATCATCA: 0.212
CACTCATG: 0.0224
ATGCAGGC: -0.159
CATCACAG: -0.0979
ATACTTTG: 0.25
AATCTAAA: 0.194

Set 3 — method: RNA Bind-n-Seq; form: RNA; sample: in vitro; tested at: 20 nM; setting: 6-mer, flanks averaged, single round; together with: 150 mM LiCl; reference: input library; direction: higher = stronger binding; measurement: 6-mer enrichment (R)
Target: TAR DNA-binding protein 43, full length, His tag (TARDBP, Homo sapiens, UniProt Q13148, residues 1-414)
CGUCGU: 0.991
AUGUGA: 1.12
GAGAUU: 0.932
AAGGUC: 0.841
AUACCG: 0.834
AACUAU: 0.901
GUACUG: 0.942
UUUGAU: 1.04
AAUUAU: 1.08
CGCAUC: 0.857
UGCUAG: 0.99
GGGACC: 1.02
UUGAAG: 1.02
CGGUUC: 0.881
AGAUAC: 0.807
AGCGUG: 1.21
AUUUCU: 1.01
CCGUGG: 1.01
ACAGAC: 0.795
CCCCUU: 1.31
CCAAGU: 0.909

Set 4 — method: protein binding microarray; form: double-stranded DNA, one strand shown; sample: in vitro; tested at: not given; reference: not given; direction: higher = stronger binding; measurement: E-score
Target: Histone acetyltransferase KAT6A, both winged helices, GST fusion (KAT6A, Homo sapiens, UniProt Q92794, residues 1-181)
Setting: 8-mer, flanks averaged, mean of 2 arrays, mostly near background
Residues (chain): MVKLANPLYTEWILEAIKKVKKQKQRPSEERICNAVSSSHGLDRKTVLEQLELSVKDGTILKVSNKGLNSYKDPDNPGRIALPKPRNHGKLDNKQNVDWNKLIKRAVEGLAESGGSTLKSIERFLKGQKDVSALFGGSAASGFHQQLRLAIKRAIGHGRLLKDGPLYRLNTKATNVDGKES
ACAAGAAT: -0.0967
CCATAGGC: 0.0991
CAGATCTG: -0.201
AGCGATGA: 0.0412
AGCGGTGA: 0.204
ATGCCCTC: -0.126
CGAGAACC: 0.0673
ACCCTTAA: -0.13
AGCCTGAG: 0.0136
GTTTTGAA: -0.0915
AGTAGATA: -0.00179
ACTATTTG: -0.0999
CGCAACTC: 0.114
CGAAGAGC: 0.158
ATAGCACC: -0.0323
GGGACCGA: 0.0322
GTTTACAA: -0.0213
CTCCCGGC: 0.232
AGATCGAA: -0.0541
AACACGAC: -0.0999
CATGTGTA: 0.00573
ACTCCGAA: 0.0488
ACTTTTGG: -0.0102
GCACTTGA: 0.0722
CAAGAAGC: 0.109

Set 5 — method: aptamer microarray, sandwich; form: DNA with 2'F-ANA; sample: in vitro; tested at: 200 nM; together with: Cy3 exosite-II aptamer, 400 nM; direction: higher = stronger binding; measurement: mean fluorescence intensity; strand: GGTTGGTGTGGTTGG
Target: Prothrombin, mature alpha-thrombin (F2, Homo sapiens, UniProt P00734)
Setting: whole 15-mer aptamer, many near background
2'F-ANA at 1 3 6 9 10 11 12 13 15: 93.1 a.u.
2'F-ANA at 6 7 8 10 14 15: 112 a.u.
2'F-ANA at 2 4 5 7 8 9 12 13 14 15: 49.1 a.u.
2'F-ANA at 2 7 8 13: 449 a.u.
2'F-ANA at 2 4 5 6 8 14 15: 154 a.u.
2'F-ANA at 2 3 4 5 6 9 12 13: 99.9 a.u.
2'F-ANA at 1 2 3 4 5 6 9 11 13: 50.8 a.u.
2'F-ANA at 1 2 3 4 5 7 10 11 12 13: 50.9 a.u.
2'F-ANA at 3 4 5 7 9 10 11 12 13 14: 53 a.u.
2'F-ANA at 1 2 6 7 8 9 15: 160 a.u.
2'F-ANA at 1 4 7 9 12: 370 a.u.
2'F-ANA at 4 8 10 11 12 15: 95.8 a.u.
2'F-ANA at 2 3 4 5 6 8 9 10 13 15: 51.2 a.u.
2'F-ANA at 1 2 3 7 8 10 11 15: 64.9 a.u.
2'F-ANA at 5 6 7 8 13 15: 113 a.u.
2'F-ANA at 1 4 10 12 14 15: 44.8 a.u.
2'F-ANA at 1 2 5 8 9 10 13 14: 50.9 a.u.
2'F-ANA at 2 3 6 7 9 13: 511 a.u.
2'F-ANA at 1 2 4 5 7 8 10 15: 59.7 a.u.
2'F-ANA at 4 6 7 12 14 15: 122 a.u.
2'F-ANA at 6 7 9 13 14 15: 154 a.u.
2'F-ANA at 1 2 3 4 5 7 9 13 14 15: 47.6 a.u.

Excerpt of the above (set 5):
2'F-ANA at 1 3 6 9 10 11 12 13 15: 93.1 a.u.
2'F-ANA at 6 7 8 10 14 15: 112 a.u.
2'F-ANA at 2 4 5 7 8 9 12 13 14 15: 49.1 a.u.
2'F-ANA at 2 7 8 13: 449 a.u.
2'F-ANA at 2 4 5 6 8 14 15: 154 a.u.
2'F-ANA at 2 3 4 5 6 9 12 13: 99.9 a.u.
2'F-ANA at 1 2 3 4 5 6 9 11 13: 50.8 a.u.
2'F-ANA at 1 2 3 4 5 7 10 11 12 13: 50.9 a.u.
2'F-ANA at 3 4 5 7 9 10 11 12 13 14: 53 a.u.
2'F-ANA at 1 2 6 7 8 9 15: 160 a.u.
2'F-ANA at 1 4 7 9 12: 370 a.u.
2'F-ANA at 4 8 10 11 12 15: 95.8 a.u.
2'F-ANA at 2 3 4 5 6 8 9 10 13 15: 51.2 a.u.
2'F-ANA at 1 2 3 7 8 10 11 15: 64.9 a.u.
2'F-ANA at 5 6 7 8 13 15: 113 a.u.
2'F-ANA at 1 4 10 12 14 15: 44.8 a.u.
